Experimental data collected from several papers.
Parts stem from different laboratories: compare values within a part only.

Sample 1 — technique: protein-binding microarray; form: double-stranded DNA, one strand shown; matrix: in vitro; tested at: 940 nM top; setting: 60-bp whole probe; added: salmon DNA 0.4 mg/ml; reference: random background probes; reading: higher = stronger binding
Target: Interferon regulatory factor 5, full length, phosphomimetic (IRF5, Homo sapiens, UniProt Q13568-2, residues 1-514, S451D/S453D/S456D/S462D)
Under “fitted relative affinity”, `GCCTAGCACGACGGTACCCTTATCCTGACGTGCTAGGTCTTGATTCGCTTGACGCTGCTG` is recorded as 0.254 z-score.
`GCCTAGCACTCACTTTTGCTAATTTTACTGTGCTAGGTCTTGATTCGCTTGACGCTGCTG` — result for “fitted relative affinity”: 0.835 z-score.
For `GCCTAGCACGACGGTTTCGGTCTGGGGACGTGCTAGGTCTTGATTCGCTTGACGCTGCTG`, “fitted relative affinity” read 12.6 z-score.

Sample 2 — technique: protein binding microarray; form: double-stranded DNA, one strand shown; matrix: in vitro; tested at: not given; reference: not given; reading: higher = stronger binding
Target: Histone acetyltransferase KAT6A, both winged helices, GST fusion (KAT6A, Homo sapiens, UniProt Q92794, residues 1-181)
Setting: 8-mer, flanks averaged, mean of 2 arrays, mostly near background
Target sequence (chain): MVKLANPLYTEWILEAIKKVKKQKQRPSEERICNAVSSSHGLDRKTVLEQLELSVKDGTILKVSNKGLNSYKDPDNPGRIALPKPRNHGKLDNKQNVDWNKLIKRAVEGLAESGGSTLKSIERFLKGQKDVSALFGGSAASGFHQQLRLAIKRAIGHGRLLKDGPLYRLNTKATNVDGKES
The E-score of `AGTGTGTA` is reported as -0.0283.
For `AATTACAG`, the E-score was -0.00962.
For `CGACGGAC`, the E-score was 0.277.
For `CAACTAGG`, the E-score was -0.144.

Sample 3 — technique: RNA Bind-n-Seq; form: RNA; matrix: in vitro; tested at: 365 nM; reference: no-protein control; reading: higher = stronger binding
Target: RNA binding protein fox-1 homolog 2, RRM domain, GST-SBP tag (RBFOX2, Homo sapiens, UniProt O43251-10, residues 100-194)
Setting: natural RNA segment, single round, ends assumed
`GGGAGUUCUACAGUCCGACGAUCGGUGGUGGUGACGUGAGGGCUGUGAAGGAUCCAGAGACAAGACUUAGAUGUUUCGUUCAUUCACUCACUCAUUCAGUUACUCCUAAGACUUUUCAGUUUCAUAAGGAAGAUGGAAUUCUCGGGUGCCAA` — result for “RBNS enrichment (R)”: 0.467.
Under “RBNS enrichment (R)”, `GGGAGUUCUACAGUCCGACGAUCUAAGUGCCCUGAGGCGCUCUGUACUAGAAACUGCUCUUAAUAAUAACGGUGAUUAUUGGUUGCUGCAUUGCUGUUGUAUGGCUCUUGAGUCUUCCUGAGUUUGUGUCCAGUGGAAUUCUCGGGUGCCAA` is recorded as 15.1.
Under “RBNS enrichment (R)”, `GGGAGUUCUACAGUCCGACGAUCUGUUUGGGUAGGGCCAUUUAACUUCCAUUAUGCCAAACUUGGGAUGGGAUUUUCGAAGCAGACAACACUAUUUCAUCGUGUUUCAAAUUGGAACCUUGAGGCUAGUUAGUUGGAAUUCUCGGGUGCCAA` is recorded as 0.934.

Mixed results
With `PhoQ, residues 284 288 289 292 302 303 NLSRDF` the fold induction was 13.7 (PhoP, residues 12 14 15 18 19 SGWQI (Escherichia coli, UniProt P23836); Sort-seq, measured: YFP reporter; E. coli; PhoQ-PhoP variant library, added: 10 µM Mg2+; reference: high Mg2+ state, higher = stronger signaling).
